Published values collected from several papers.
Each numbered part is a random draw from the data of one study; scales do not carry over between parts. Substitutions count along the parent as printed.
UniProt Q9NR20, sequence (whole entry, looked up): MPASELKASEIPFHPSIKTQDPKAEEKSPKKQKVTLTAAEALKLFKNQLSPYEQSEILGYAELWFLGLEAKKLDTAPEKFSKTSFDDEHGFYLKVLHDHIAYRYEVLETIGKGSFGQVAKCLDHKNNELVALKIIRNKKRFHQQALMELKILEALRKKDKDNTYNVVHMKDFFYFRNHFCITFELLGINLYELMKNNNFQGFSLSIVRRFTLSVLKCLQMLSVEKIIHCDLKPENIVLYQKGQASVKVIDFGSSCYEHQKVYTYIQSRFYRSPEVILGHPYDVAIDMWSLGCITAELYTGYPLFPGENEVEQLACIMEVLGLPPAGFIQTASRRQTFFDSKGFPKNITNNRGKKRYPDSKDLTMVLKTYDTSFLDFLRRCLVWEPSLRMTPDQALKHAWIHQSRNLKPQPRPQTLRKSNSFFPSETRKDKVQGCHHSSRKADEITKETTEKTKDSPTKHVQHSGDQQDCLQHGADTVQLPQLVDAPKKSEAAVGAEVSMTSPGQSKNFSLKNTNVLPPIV

Study 1 — method: aptamer microarray, sandwich; molecule type: DNA with 2'F-ANA; matrix: in vitro; concentration: 200 nM; added: Cy3 exosite-II aptamer, 400 nM; reading: higher = stronger binding; oligonucleotide: GGTTGGTGTGGTTGG
Target: Prothrombin, mature alpha-thrombin (F2, Homo sapiens, UniProt P00734)
Notes: whole 15-mer aptamer, many near background
`2'F-ANA at 2 4 5 6 7 8 13`: “mean fluorescence intensity” 68.3 a.u.
For `2'F-ANA at 2 3 4 8 9 10 11 15`, “mean fluorescence intensity” read 192 a.u.
For `2'F-ANA at 5 7 9 10 11 12 14`, “mean fluorescence intensity” read 46.5 a.u.
For `2'F-ANA at 1 7 11 12 13 15`, “mean fluorescence intensity” read 289 a.u.
Under “mean fluorescence intensity”, `2'F-ANA at 5 10 11 12 13 15` is recorded as 53.5 a.u.
Under “mean fluorescence intensity”, `2'F-ANA at 4 5 7 8 13 14` is recorded as 60.4 a.u.
Under “mean fluorescence intensity”, `2'F-ANA at 3 4 5 6 10 11 14` is recorded as 43.2 a.u.
`2'F-ANA at 1 3 4 11 12 14`: “mean fluorescence intensity” 85.5 a.u.

Study 2 — target: HLF, bZIP domain (human); method: DHFR protein complementation; matrix: yeast; reference: wild-type JUN-FOS pair; reading: higher = stronger binding
Notes: single substitutions, most at no-binding floor
Parent: JUN, bZIP domain (human); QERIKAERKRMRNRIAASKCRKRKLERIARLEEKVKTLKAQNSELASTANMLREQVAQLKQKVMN; partner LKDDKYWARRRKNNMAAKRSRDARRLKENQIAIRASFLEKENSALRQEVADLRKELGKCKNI
For `S47N`, the binding fitness was -1.46 natural log.
With `R53H` the binding fitness was -1.55 natural log.
`V35G` gave a binding fitness of -1.5 natural log.
The binding fitness of `Q55V` is reported as -1.29 natural log.
`I28C` has a binding fitness of -1.16 natural log.
`S43L` gave a binding fitness of -1.35 natural log.
`Q55P` gave a binding fitness of -1.51 natural log.
`M51W` has a binding fitness of -1.42 natural log.

Study 3 — target: CCND2, cyclin fold, Cln2 fusion (human); method: yeast growth competition, sequencing; matrix: yeast; notes: strong parent motif; reference: not given; reading: higher = stronger binding
Parent: PKN2 docking peptide (human); VSAVRKLDFSDTM; partner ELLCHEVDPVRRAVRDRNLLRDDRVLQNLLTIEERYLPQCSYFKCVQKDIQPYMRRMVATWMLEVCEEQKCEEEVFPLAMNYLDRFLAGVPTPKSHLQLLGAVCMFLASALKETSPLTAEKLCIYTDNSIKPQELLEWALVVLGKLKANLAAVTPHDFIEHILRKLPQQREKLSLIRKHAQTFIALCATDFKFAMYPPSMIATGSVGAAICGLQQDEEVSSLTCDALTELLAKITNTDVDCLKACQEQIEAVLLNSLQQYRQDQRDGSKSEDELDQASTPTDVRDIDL
`F9T`: “normalised enrichment score” 0.0765.
Under “normalised enrichment score”, `V4Y` is recorded as 1.04.
For `D8Q`, “normalised enrichment score” read 1.58.
For `V4C`, “normalised enrichment score” read 3.66.
For `T12V`, “normalised enrichment score” read 2.95.
Under “normalised enrichment score”, `S2G` is recorded as 3.28.
`L7I` — result for “normalised enrichment score”: 3.3.
`T12G`: “normalised enrichment score” 3.43.

Mixed results
The remaining activity of Cc1nc2cc3nc(-c4cccs4)cnc3cc2n1C is reported as 104% (Dual specificity tyrosine-phosphorylation-regulated kinase 4 (DYRK4, Homo sapiens, UniProt Q9NR20); enzyme activity, inhibitor; 0.5 µM; reference: control).
